Measured values from different studies.
Each numbered part is a random draw from the data of one study; scales do not carry over between parts.

Sample 1
Target: RING finger protein unkempt homolog, zinc fingers 1-6, GST-SBP tag (UNK, Homo sapiens, UniProt Q9C0B0, residues 30-357)
UniProt Q9C0B0, sequence (30-357, looked up): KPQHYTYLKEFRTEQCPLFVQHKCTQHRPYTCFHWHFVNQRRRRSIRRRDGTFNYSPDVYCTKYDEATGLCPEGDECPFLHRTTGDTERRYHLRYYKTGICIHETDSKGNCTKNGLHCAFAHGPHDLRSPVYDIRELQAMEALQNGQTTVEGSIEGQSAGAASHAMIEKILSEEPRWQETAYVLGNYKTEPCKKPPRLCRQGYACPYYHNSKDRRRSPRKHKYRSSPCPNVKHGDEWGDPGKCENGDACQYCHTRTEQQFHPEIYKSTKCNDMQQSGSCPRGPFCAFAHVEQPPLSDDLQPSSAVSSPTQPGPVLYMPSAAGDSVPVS
Technique: RNA Bind-n-Seq
Molecule type: RNA
Matrix: in vitro
Concentration: not given
Setting: RNA with constant flanks, human-mouse chimeric sites, ends assumed
Reference: input RNA pool
Reading: higher = stronger binding
Endpoint: bound/input enrichment
Constant ends, left off below: GGGAGUUCUACAGUCCGACGAUC … CAACAGAGGAUUGAGCAUCA
AUGGAACAUUUCGAUGCGUCACUCAGUACCUAUUUCAAGGCCUUCCUGGGCCCCCGAGAUACUAGAGUAAAAGGAUGGUUCCUCCUGGACAAUUACAUCCCUACGUUUGUCUGUUCUGUU: 0.109 ratio
AAUAGAGGAUCCACCUCCCAAAGUGCUGGGAGUAAAGGUGUGGCCACCACACCUAACUUGAUGGAUAUUUUAUAAAGUUAAUAUGAAUCUUCCUGUUCGUCCAGGGAAGAAAGAUUUGUU: 0.648 ratio
AAUUUCCUGUCAUACUUUUUAGACAUUCACAUCAGACUUACAGAGCAUUGGGCCUCUUUCUAGUUUUGUGUUAUUUCUCAGCUAUGGAUAUGAUCAAAUGAGAACACUGCUUAACUAAUG: 0.377 ratio
AAAGAGAAAGCUAAAACACUAAUAGAGAAGAGGAUUGGCAAAGAGAAUUUCAUAGAGGAAACUAGGAUUAUUAGCAAACAUGAGUUAUAUUCCAGAGCGUCUCAGAAACCCCAGCCAAAC: 4.15 ratio
UGACAAGGGCACUGCAGAGCCAUGCCUUUCCUUGACAUACAGAAAAAGCUGGGCAUCAACAUAGAUCGGCACUUUAUGUUCCUAAGCGGUGAACAGCCCUAUAAGAACGCCGCUCGGUGC: 0.117 ratio
CUUAAUGUUAAUAUUUUUGAAUAAAUGUAAAACCAUGGUCUGCUUUUGGUACAACACGCAUUAAUAAAAGGUUAAGUUUUGUUUUCCACUGAAGUACUAUUUAACAUCUCAGAAAAAAAC: 0.209 ratio
GUAUACGGUUAUCGAGGAAAGGACUGUAGAGCUAAUGUAUACCUGCUUCCCACAGGGGAGAUAGUUUAUUUUAUCGCCUCAGUGGUAGUACUAUUUAAUUAUGAGGAGAGGACUCAGCGA: 3.73 ratio

Sample 2
Target: Protein C-ets-1 (ETS1, Homo sapiens, UniProt P14921, residues 1-441, K379A, full length assumed)
Technique: protein-binding microarray
Molecule type: double-stranded DNA, one strand shown
Matrix: in vitro
Concentration: not given
Setting: k-mer, scored over probes, only values ≥0.25
Reading: higher = stronger binding
Endpoint: E-score
Residues (chain): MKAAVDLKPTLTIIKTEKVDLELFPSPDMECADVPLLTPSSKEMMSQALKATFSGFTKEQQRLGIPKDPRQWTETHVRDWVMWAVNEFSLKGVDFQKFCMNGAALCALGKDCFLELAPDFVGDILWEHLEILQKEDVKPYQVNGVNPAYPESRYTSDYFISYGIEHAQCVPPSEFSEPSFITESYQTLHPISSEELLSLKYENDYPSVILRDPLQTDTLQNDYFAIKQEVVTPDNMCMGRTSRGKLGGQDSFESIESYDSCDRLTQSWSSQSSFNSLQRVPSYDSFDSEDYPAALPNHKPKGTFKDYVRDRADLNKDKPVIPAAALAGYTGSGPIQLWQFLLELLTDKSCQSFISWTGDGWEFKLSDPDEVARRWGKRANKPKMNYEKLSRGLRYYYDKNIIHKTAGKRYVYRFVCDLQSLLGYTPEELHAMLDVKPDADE
ATGACACC: 0.328
AACGATGT: 0.318
ATAACGAC: 0.283
ACCGTCAC: 0.297
AGGGCGGG: 0.264
ATCCCGGC: 0.278
CCGACACG: 0.272

Sample 3
Molecule: PhoQ, residues 284 288 289 292 302 303 GASLAW
Technique: Sort-seq
Refers to: YFP reporter
Matrix: E. coli
Setting: PhoQ-PhoP variant library
Added: 10 µM Mg2+
Reference: high Mg2+ state
Reading: higher = stronger signaling
Endpoint: fold induction
PhoP, residues 12 14 15 18 19 ICWRQ (Escherichia coli, UniProt P23836): 4.48
PhoP, residues 12 14 15 18 19 VHTVL (Escherichia coli, UniProt P23836): 5.95
PhoP, residues 12 14 15 18 19 TQCLL (Escherichia coli, UniProt P23836): 9.6

Sample 4
Target: Phosphate system positive regulatory protein PHO4, full length, GST-tagged (PHO4, Saccharomyces cerevisiae, UniProt P07270, residues 1-312)
Technique: competition protein-binding microarray
Molecule type: double-stranded DNA, one strand shown
Matrix: in vitro
Concentration: 2 µM
Setting: whole 60-bp probe, lowest competitor level
Added: Cbf1 competitor, 0.05 µM
Reading: higher = stronger binding
Endpoint: fluorescence intensity
Constant ends, left off below: … GTCTTGATTCGCTTGACGCTGCTG
Construct (chain): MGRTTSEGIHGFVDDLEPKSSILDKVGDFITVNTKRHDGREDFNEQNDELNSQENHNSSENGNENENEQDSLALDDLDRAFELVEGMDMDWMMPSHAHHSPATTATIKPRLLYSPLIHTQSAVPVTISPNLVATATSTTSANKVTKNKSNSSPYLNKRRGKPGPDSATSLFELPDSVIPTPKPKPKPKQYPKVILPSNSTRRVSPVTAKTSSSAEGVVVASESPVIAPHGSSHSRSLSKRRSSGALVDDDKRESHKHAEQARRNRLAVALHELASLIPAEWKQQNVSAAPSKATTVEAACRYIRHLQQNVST
CTCTTATTAACCAATGTCGTGCGGATCAAAATGCTA: 8060 a.u.
CATCTTCAATATCCAGACGTGCAAAATGTTTCAATA: 6790 a.u.
TCACTTTAACCACCATTTCTTTAAGCTAAAGTTTAG: 3620 a.u.
GTCTTGTCTCATTGTCCTGTGGGTGTCCCCACTTCA: 4730 a.u.
TATACCTTTGTTCGTCACGTGAACCAACAGAACATG: 14100 a.u.
TCATCCCATCCTCGGCACGCATTACCAGCACTCAAA: 8220 a.u.
TGCGCAACAACTTGACTTGTGGGTGTATGTCTAGAA: 5020 a.u.
CGTCCTAGTGATTGCCTGGTGGGTGCCATGAGGAAG: 7390 a.u.
